Measured values pooled from the literature.
Each line is one published result; not all experiments were run side by side. Numbers after ± are the reported error.

Structure (SMILES)	organism	assay	system	conditions	EC50
CCCCCCC(CC=CCCCCCCCC(=O)OCCOCn1cnc2c(=O)[nH]c(N)nc21)OC(=O)CCCCC1SCC2NC(=O)NC21 (centres unmarked)	herpes simplex virus 1	viral replication, plaque reduction	HFF, E-377		5700 nM
O=C(NCc1cccc(F)c1F)c1cn(Cc2ccc(F)cc2)cc(O)c1=O	human cytomegalovirus	viral replication, GFP reporter virus	HFF	168 h	670 ± 200 nM
CC(=O)Oc1ccc(Cn2nc(C)c(=O)[nH]c2=O)cc1C1OC(c2cccc(Cl)c2)=NN1C(C)=O (centres unmarked)	human cytomegalovirus	cytopathic effect	HEL fibroblasts, Davis		> 20000 nM
Nc1ncnc2c1c(F)cn2[C@@H]1O[C@H](CO)[C@@H](O)[C@H]1O	Trypanosoma evansi	parasite growth, resazurin	AnTat 3.3	48 h plus 24 h resazurin	180 ± 20 nM
O=C(Nc1cc(F)c(F)c(F)c1)c1ccc(F)c(S(=O)(=O)N2CCC(NC(=O)C3CCN(C(=O)CC45CC6CC(CC(C6)C4)C5)CC3)CC2)c1	Hepatitis B virus	viral replication, qPCR, item: HBV DNA	HepAD38	4 days	1100 nM
C=C1C(=O)O[C@H]2C[C@H](C)C(/C=C/C(C)=O)=CC[C@H]12	Punta Toro virus	viral replication	Vero		> 20000 nM
COc1ccc([C@@]23Oc4cc(OC)cc(OC)c4[C@]2(O)[C@H](O)[C@H](C(=O)N(C)C)[C@H]3c2ccccc2)cc1	Hepatitis C virus	viral entry, HCV pseudoparticle infection	primary human hepatocytes		~5 nM
CC(=O)Oc1ccc(Cn2cc(F)c(=O)[nH]c2=O)cc1C1OC(c2cccc(Cl)c2)=NN1C(C)=O (centres unmarked)	human cytomegalovirus	cytopathic effect	HEL fibroblasts, AD-169		> 20000 nM
O=C(NCc1c(F)cccc1F)c1cn(Cc2ccc(F)cc2)cc(O)c1=O	human cytomegalovirus	viral replication, GFP reporter virus	HFF	168 h	600 ± 150 nM
C[C@@H]1COCCN1c1nc(NCc2cccnc2C(F)(F)F)c2cccnc2n1	Wolbachia pipientis	infected cells, high-content imaging	C6/36 cells, wAlbB		14.4 ± 3.7 nM
O=C(Cc1csc2nc(-c3ccc(Br)cc3)cn12)NN=C1CCCC1	Reovirus-1	viral cytopathicity, microscopy	Vero		> 100 µg/mL
CC(=O)Oc1ccc(Cn2cc(C)c(=O)[nH]c2=O)cc1C1OC(c2ccc(Cl)cc2)=NN1C(C)=O (centres unmarked)	human cytomegalovirus	cytopathic effect	HEL fibroblasts, AD-169		> 20000 nM
O=C(Nc1cc(F)c(F)c(F)c1)c1ccc(F)c(S(=O)(=O)N2CCC(O)CC2)c1	Hepatitis B virus	viral replication, qPCR, item: HBV DNA	HepAD38	6 days	260 nM
CC(=O)Oc1ccc(Cn2cc(C)c(=O)[nH]c2=O)cc1C1OC(c2ccccc2)=NN1C(C)=O (centres unmarked)	human cytomegalovirus	cytopathic effect	HEL fibroblasts, Davis		> 100000 nM
CC(=O)CCC1C(=O)NC(C(C)C)C(=O)NC(Cc2cccc(O)c2)C(=O)N2CCCC(N2)C(=O)OC(C(C)=CC=CC(=O)N2CCCCO2)CC=CC=CC(O)C(C)C1O (centres unmarked)	hepatitis C virus genotype 2a JFH-1	item: HCV RNA	Huh-7 replicon	72 h	89 ± 6 nM
CC(=O)Oc1ccc(Cn2cc(F)c(=O)[nH]c2=O)cc1C1OC(c2ccccc2)=NN1C(C)=O (centres unmarked)	human cytomegalovirus	cytopathic effect	HEL fibroblasts, AD-169		> 100000 nM
CN(C)CCNC(=O)c1cc(-c2ccccc2)nc2ccccc12	Enterovirus A71	cytopathic effect	RD, US/AK/16-19516		> 10000 nM
O=C(CC12CC3CC(CC(C3)C1)C2)NCCOCCOCCOCC(=O)NC1CCN(S(=O)(=O)c2cc(C(=O)Nc3cc(F)c(F)c(F)c3)ccc2F)CC1	Hepatitis B virus	viral replication, qPCR, item: HBV DNA	HepAD38	6 days	1190 nM

Structure (SMILES)	organism	assay	system	conditions	EC50
CC(=O)CCC1C(=O)NC(C(C)C)C(=O)NC(Cc2cc(O)cc(F)c2)C(=O)N2CCCC(N2)C(=O)OC(C(C)=CC=CC(=O)N2CCCCO2)CC=CC=CC(O)C(C)C1O (centres unmarked)	hepatitis C virus genotype 1a H77	item: HCV RNA	Huh-7 replicon	72 h	18 ± 2 nM
C=CCc1ccc(OCC(=C)C)c(OC)c1	Spodoptera frugiperda	antifeedant activity, no-choice test	larvae, Zea mays		209 µg/mL
COc1ccccc1-c1n[nH]c2nc(N[C@H]3CC[C@H](NS(=O)(=O)CC(C)C)CC3)ncc12	Leishmania donovani		promastigotes, LdBOB wild type start clone		6.31 nM
O=C1/C(=N\NC(=S)NN=Cc2cccs2)c2ccccc2N1Cc1ccccc1	respiratory syncytial virus	viral replication	HeLa		> 4000 nM
CCCCCCCCCC(=O)OCC1OC(n2cc(C)c(=O)[nH]c2=O)CC1N(C)C (centres unmarked)	Punta Toro virus	viral replication	Vero		> 230 nM
C/C=C/c1ccc(OCc2ccccc2)c(OC)c1	Spodoptera frugiperda	antifeedant activity, no-choice test	larvae, Zea mays		4230 µg/mL
O=C(CC12CC3CC(CC(C3)C1)C2)NCCOCCOCC(=O)NC1CCN(S(=O)(=O)c2cc(C(=O)Nc3cc(F)c(F)c(F)c3)ccc2F)CC1	Hepatitis B virus	viral replication, qPCR, item: HBV DNA	HepAD38	6 days	1420 nM
COc1ccc(NC(=O)c2cn(Cc3ccc(F)cc3)cc(O)c2=O)cc1	human cytomegalovirus	viral replication, GFP reporter virus	HFF	168 h	780 ± 230 nM
CC(=NCc1ccccc1)c1c(C)cc(=O)n(O)c1O	Hepatitis B virus	viral replication, inhibitor, qPCR	HepDES19	72 h	22400 nM
CC(=O)Oc1ccc(Cn2ccc(=O)[nH]c2=O)cc1C1OC(c2ccccc2)=NN1C(C)=O (centres unmarked)	human cytomegalovirus	cytopathic effect	HEL fibroblasts, AD-169		> 100000 nM
Cc1cn(C2CC(N(C)C)C(CO)O2)c(=O)[nH]c1=O (centres unmarked)	Human alphaherpesvirus 1	cytopathic effect	HEL		> 370 nM
O=C(CN1CCN(C(=O)CC23CC4CC(CC(C4)C2)C3)CC1)NC1CCN(S(=O)(=O)c2cc(C(=O)Nc3cc(F)c(F)c(F)c3)ccc2F)CC1	Hepatitis B virus	viral replication, qPCR, item: HBV DNA	HepAD38	4 days	570 nM
Nc1ncnc2c1c(Br)cn2[C@@H]1O[C@H](CO)[C@@H](O)[C@H]1O	Trypanosoma evansi	parasite growth, resazurin	AnTat 3.3	48 h plus 24 h resazurin	480 ± 60 nM
CC(=O)Oc1ccc(Cn2cc(F)c(=O)[nH]c2=O)cc1C1OC(c2ccc(Cl)cc2)=NN1C(C)=O (centres unmarked)	human cytomegalovirus	cytopathic effect	HEL fibroblasts, Davis		> 20000 nM
O=C(Nc1cc(F)c(F)c(F)c1)c1ccc(F)c(S(=O)(=O)N2CCC(NC(=O)c3ccc(C4CCN(C(=O)CC56CC7CC(CC(C7)C5)C6)CC4)cc3)CC2)c1	Hepatitis B virus	viral replication, qPCR, item: HBV DNA	HepAD38	4 days	5340 nM
C=CCc1ccc(OCC=C(C)C)c(OC)c1	Spodoptera frugiperda	antifeedant activity, no-choice test	larvae, Zea mays		340 µg/mL
CC(=O)Oc1ccc(Cn2ccc(=O)[nH]c2=O)cc1C1OC(c2cccc(Cl)c2)=NN1C(C)=O (centres unmarked)	human cytomegalovirus	cytopathic effect	HEL fibroblasts, AD-169		> 100000 nM

For quick reference, copied from above:
Structure (SMILES)	organism	assay	system	conditions	EC50
O=C(CC12CC3CC(CC(C3)C1)C2)NCCOCCOCC(=O)NC1CCN(S(=O)(=O)c2cc(C(=O)Nc3cc(F)c(F)c(F)c3)ccc2F)CC1	Hepatitis B virus	viral replication, qPCR, item: HBV DNA	HepAD38	6 days	1420 nM
COc1ccc(NC(=O)c2cn(Cc3ccc(F)cc3)cc(O)c2=O)cc1	human cytomegalovirus	viral replication, GFP reporter virus	HFF	168 h	780 ± 230 nM
CC(=NCc1ccccc1)c1c(C)cc(=O)n(O)c1O	Hepatitis B virus	viral replication, inhibitor, qPCR	HepDES19	72 h	22400 nM
CC(=O)Oc1ccc(Cn2ccc(=O)[nH]c2=O)cc1C1OC(c2ccccc2)=NN1C(C)=O (centres unmarked)	human cytomegalovirus	cytopathic effect	HEL fibroblasts, AD-169		> 100000 nM
